Results of several laboratories.
Protocols differ between the studies behind these lines. ± gives the spread as reported.

| Compound | assay | test system | setting | scale | endpoint | value |
| --- | --- | --- | --- | --- | --- | --- |
| CCCCCCCCCCCCCCCC(=O)N[C@@H](CCCCN)C(=O)N[C@@H](CCCCN)C(=O)N[C@@H](CO)C(=O)N[C@@H](CCCNC(=N)N)C(=O)N[C@@H](C)C(=O)N[C@@H](CC(C)C)C(=O)N[C@@H](Cc1ccccc1)C(N)=O |  | cynomolgus monkey, male | 30 mg/kg, day 1 |  | activated partial thromboplastin time | 30.9 ± 5.7 s |
| C=CC(=C)CC[C@]1(C)[C@H](C)CC[C@@]23C(=C[C@H](OC(=O)C(C)C)C[C@@H]12)[C@@H](OC(C)=O)O[C@H]3OC(C)=O | haemolysis |  | 20 µM |  | haemolysis | 0% |
| O=C([O-])CN1CCN(CC(=O)[O-])CCN(CC(=O)NC[C@H]2CC[C@H](C(=O)N[C@H](Cc3cnc4ccccc4c3)C(=O)NCCCC[C@H](NC(=O)N[C@@H](CCC(=O)O)C(=O)O)C(=O)O)CC2)CCN(CC(=O)[O-])CC1.[64Cu+2] | PET/CT dosimetry OLINDA/EXM | healthy volunteers, thyroid | up to 24 h post-injection |  | absorbed dose | 0.0143 mGy/MBq |
| CC(C)C[C@@H](NC(=O)[C@H](NC(=O)[C@H]1CCCN1)[C@H](C)O)C(=O)N[C@H](Cc1c[nH]cn1)C(=O)N[C@@H](C(=O)N[C@H](Cc1c[nH]cn1)C(=O)N[C@H](CC(N)=O)C(=O)N[C@H](CCCNC(=N)N)C(=O)N[C@H](CCCNC(=N)N)C(=O)N[C@H](CCCNC(=N)N)C(=O)N[C@H](CCCNC(=N)N)C(=O)N[C@H](CCCNC(=N)N)C(N)=O)[C@H](C)O |  | Beagle dog, plasma | intravenous, 3 mg/kg, single dose |  | Vss | 0.66 L/kg |
| NC[C@@H](C(=O)Nc1ccc(-c2cn[nH]c2)cc1)c1ccccc1 | OECD 405 eye irritation | New Zealand White rabbit, eye | topical, 0.1%, 72 h (day 4) | direction not given | total eye irritation score | 0 |
| CC(C)c1cnc(-c2cc(Cl)ccc2F)cc1Nc1ccncc1C(=O)NC(CO)CO | refers to: Diarrhea | solid tumour patients | oral, dose not given, phase I monotherapy |  | treatment-related adverse events | 7.1% |
| COC(=O)c1ccc(-c2cn(Cc3cc(Cl)ccc3O[11CH3])nn2)cc1 | PET, Logan plot, t*=40 min | rhesus monkey, brain Putamen | dose not given |  | distribution volume | 0.574 mL/cm³ |
| CCOC(=O)CCC(=O)Oc1ccc(/C=C/C(=O)/C=C(O)/C=C/c2ccc(OC(=O)CCC(=O)OCC)c(OC)c2)cc1OC |  | plasma | 1.5 µM | baseline: rat over human | hydrolysis rate constant ratio | 50 |
| CCOC(=O)c1[nH]c(C)c(/C=C/C2=[N+]3C(=C(c4cc(OC)cc(OC)c4)c4c(C)c(I)c(/C=C/c5c(C)[nH]c(C(=O)OCC)c5C)n4[B-]3(F)F)C(C)=C2I)c1C |  | THF |  |  | Stokes shift | 573 cm⁻¹ |
| COC(=O)c1ccc(CCc2cc3cc4nc(c(OC)c5[nH]c(cc6nc(cc2[nH]3)CC6(C)C)cc5CCCNC(=O)OC(C)(C)C)C(=O)C4(C)C)cc1 |  | DMF | room temperature |  | Qy absorption FWHM | 23 nm |
| COC(=O)c1ccc2c(c1)NC(=O)/C2=C(\Nc1ccc2c(c1)CCN2C(=O)CN1CCOCC1)c1ccccc1 |  | cynomolgus monkey, plasma | intravenous, 2 mg/kg |  | AUC(0-t) | 2.03 µg·h/mL |
| CCn1cc(/C=C/c2ccc3ccccc3[n+]2CC)c2ccccc21 |  | methanol |  |  | Stokes shift | 72 nm |
| Nc1nccc(-c2cn(C3CC3)c3ccccc23)n1 | LC-RAM/HRMS | human male, plasma | oral, 110 mg, 4 h | baseline: total radioactivity | share of radioactivity | 10% |
| O=C([O-])CN1CCN(CC(=O)[O-])CCN(CC(=O)NCC2CCC(C(=O)NC(Cc3ccc4ccccc4c3)C(=O)NCCCCC(NC(=O)NC(CCC(=O)O)C(=O)O)C(=O)O)CC2)CCN(CC(=O)[O-])CC1.[44Sc+3] (stereo not drawn) | PET/CT dosimetry | human patients, liver | mean of 4 patients |  | residence time | 0.348 h |
| CC/C=C\C/C=C\C/C=C\C/C=C\C/C=C\CCCCOC(CC)C(=O)O (stereo not drawn) | [14C] label | male Wistar rat, urine | oral, 100 mg/kg | baseline: dose | excreted radioactivity | 60% |
| CCCCCC(O)C=CC1OC2OC(C1CC=CCCCC(=O)O)C2(F)F (stereo not drawn) |  | phosphate buffer with DMSO | concentration not given, pH 2.42 |  | hydrolysis half-life | 190 h |
| N=C(N)NCCC[C@H](NC(=O)[C@H](CCCNC(=N)N)NC(=O)[C@H](CCCNC(=N)N)NC(=O)[C@H](CCCNC(=N)N)NC(=O)[C@H](CCCNC(=N)N)NC(=O)[C@H](CCCNC(=N)N)NC(=O)[C@H](CCCNC(=N)N)NC(=O)[C@H](CCCNC(=N)N)NC(=O)[C@H](CCCNC(=N)N)NC(=O)[C@H](CCCNC(=N)N)NC(=O)[C@H](CCCNC(=N)N)NC(=O)[C@H](CCCNC(=N)N)NC(=O)[C@H](CCCNC(=N)N)NC(=O)[C@H](CCCNC(=N)N)NC(=O)[C@H](CCCNC(=N)N)NC(=O)[C@H](CCCNC(=N)N)NC(=O)[C@H](CCCNC(=N)N)NC(=O)[C@H](CCCNC(=N)N)NC(=O)[C@H](CCCNC(=N)N)NC(=O)[C@H](CCCNC(=N)N)NC(=O)c1ccc2c(c1)C(=O)OC21c2ccc(O)cc2Oc2cc(O)ccc21)C(=O)O |  | bovine cartilage explants | 30 µM, 24 h, together with: 1 x PBS |  | retained fraction | ~99% |
| Cc1ccc(OCC(=O)O)cc1 |  | Sprague-Dawley rat, female, plasma | oral, 30 mg/kg/day of parent drug, day 1, 90-day repeated dosing |  | Tmax | 3 h |
| [11CH3]c1ccc2nc(C3CCC3)n(-c3ccc4[nH]ncc4c3)c2n1 | extrapolated from mouse | human male, Urinary bladder wall |  |  | absorbed dose | 2.6 µSv/MBq |
| CCCCCCCC(=O)OC[C@H](NC(=O)[C@H](CO)NC(=O)CN)C(=O)N[C@@H](Cc1ccccc1)C(=O)N[C@@H](CC(C)C)C(=O)N[C@@H](CO)C(=O)N1CCC[C@H]1C(=O)N[C@@H](CCC(=O)O)C(=O)N[C@@H](Cc1cnc[nH]1)C(=O)N[C@@H](CCC(N)=O)C(=O)N[C@@H](CCCNC(=N)N)C(=O)N[C@H](C(=O)N[C@@H](CCC(N)=O)C(=O)N[C@@H](CCC(N)=O)C(=O)N[C@@H](CCCNC(=N)N)C(=O)N[C@@H](CCCCN)C(=O)N[C@@H](CCC(=O)O)C(=O)N[C@@H](CO)C(=O)N[C@@H](CCCCN)C(=O)N[C@@H](CCCCN)C(=O)N1CCC[C@H]1C(=O)N1CCC[C@H]1C(=O)N[C@@H](C)C(=O)N[C@@H](CCCCN)C(=O)N[C@@H](CC(C)C)C(=O)N[C@@H](CCC(N)=O)C(=O)N1CCC[C@H]1C(=O)N[C@@H](CCCNC(=N)N)C(=O)O)C(C)C |  | patients with chronic HFrEF | iv infusion, 0.1 µg/kg/min, 60 min into infusion, scale 1-10, median | direction not given | hunger score | 5 |
| C[C@H]1CO[C@@H]2Cn3cc(C(=O)NCc4ccc(F)cc4F)c(=O)c(O[C@@H]4O[C@H](C(=O)O)[C@@H](O)[C@H](O)[C@H]4O)c3C(=O)N12 |  | humans UGT1A1 wild type | intramuscular, dose not given, 4 weeks post-injection |  | participants with detectable plasma drug | 100% |
| CCCC(CCC)NC(=O)c1ccc(O)c(O)c1 | LC-MS | Sprague-Dawley rat, both sexes, rat liver microsomes | 10 µM of parent drug, 20 min, pH 7.4, together with: NADPH | baseline: parent drug at time zero | metabolite peak area | 29.9% |
| CC(=O)N[C@H](CC(=O)O)C(=O)N[C@H](Cc1c[nH]c2ccccc12)C(=O)N[C@H](Cc1ccccc1)C(=O)N[C@H](CCCCN)C(=O)N[C@H](C)C(=O)N[C@H](Cc1ccccc1)C(=O)N[C@H](Cc1ccc(O)cc1)C(=O)N[C@H](CC(=O)O)C(=O)N[C@H](CCCCN)C(=O)N[C@@H](C(=O)N[C@H](C)C(=O)N[C@H](CCC(=O)O)C(=O)N[C@H](CCCCN)C(=O)N[C@H](Cc1ccccc1)C(=O)N[C@H](CCCCN)C(=O)N[C@H](CCC(=O)O)C(=O)N[C@H](C)C(=O)N[C@H](Cc1ccccc1)C(N)=O)C(C)C |  | statin-treated high-risk CHD men, plasma | oral, 300 mg daily, day 13, 0 to 8 h, mean, detected subjects only |  | AUC(0-t) | 0.0255 µg·h/mL |
| COc1cc(NC(C)=O)c2c(c1O)-c1c(OC)c(OC)cc3c1C(C2)N(C)CC3 (stereo not drawn) |  | Wistar rat male, plasma | intravenous, 100 mg/kg |  | terminal slope | 0.359 ± 0.158 |
| Cc1ccc(-c2ccc(-c3cc4sccc4o3)cn2)nc1 | TCSPC | EtOH |  |  | fluorescence lifetime | 1.63 ns |
| OC1(C(F)(F)F)CCN(c2nc(Nc3ccnc(C(F)(F)F)c3)nc(-c3cccc(C(F)(F)F)n3)n2)C1 (stereo not drawn) |  | Sprague-Dawley rat, both sexes, faeces | oral, 10.1 mg/kg | baseline: dose | excretion of parent and metabolites | > 90% |
| C#CCOc1ccc(/C=C2\SC(=O)N(CC(=O)NCc3ccccc3)C2=O)cc1 | inverse Kirkwood-Buff integrals | binary solvent mixture | 298.15 K, mole fraction x1 1.00 |  | Kirkwood-Buff integral G1,3 | -257 cm³/mol |
| Cn1c(=O)oc2ccc(-c3ccc(CC(C#N)NC(=O)C4CNCCCO4)c(F)c3)cc21 (stereo not drawn) | refers to: aspartate aminotransferase increased | human volunteers | oral, dose not given |  | treatment-emergent adverse event incidence | 3.7% |
| CCCC[C@H](NC(=O)[C@H](CC(C)C)N(C)C(=O)CNC(=O)[C@@H](NC(=O)[C@H](Cc1ccccc1)NC(=O)[C@H](CCCCN)NC(=O)[C@@H](N)CC(=O)O)C(C)C)C(N)=O |  | anaesthetised Sinclair minipigs | IV, 0.3 µg/kg | baseline: baseline | mean arterial pressure change | -11.9 ± 4.04% |
| N=C(N)NCCC[C@@H]1NC(=O)[C@H](Cc2c[nH]c3ccccc23)NC(=O)[C@@H](CC2CCCCC2)NC(=O)[C@@H]2CCCN2C(=O)[C@@H](NC(=O)CCc2ccccc2)CCCNC1=O |  | C57BL/6J mouse, plasma | intravenous, 1 mg/kg single dose |  | Vss | 0.00276 L |
